Experimental data gathered from unrelated publications.
Each line is one published result; not all experiments were run side by side. Several values in a cell are separate wells, animals, samples, runs or records. Numbers after ± are the reported error.

For `CNCCOC12CC3(C)CC(C)(CC(Cn4ncc(-c5ccc(N6CCc7cccc(C(=O)Nc8nc9ccccc9s8)c7C6)nc5C(=O)O)c4C)(C3)C1)C2`, “heart rate change” read 9% (beagle dog, male, anaesthetised; intravenous bolus, 0.03 mg/kg, 15 min; reference: baseline).
`COc1ccc([C@@H](O)c2cc(-c3ncnc4cc(N5CCOCC5)ccc34)c(F)cc2Cl)nn1`: “drug-related blood lymphatic AE” 33% (locally advanced rectal cancer patients; 100 mg, together with: capecitabine and radiotherapy).
With `CNc1ccc(-c2nc3ccc(O)cc3s2)cc1` [carbon-11 labelled] the uptake was 0.169 ± 0.041 SUV (ex vivo biodistribution; normal B6SJL mice, caudate nucleus; intravenous, 30 min).
For `CC(C)C(=O)O[C@H]1[C@H](C)OC(=O)[C@@H]1Cc1ccccc1`, the KOC was 118 mL/g (FOCUS PEARL groundwater modelling; soil; geometric mean input).
`O=C(O)/C=C/c1ccccc1O` — result for CSF concentration: “not detected” (human CSF; concentration not given, mean).
Under “participants with grade ≥ 3 TEAE”, `CCn1c(=O)c(-c2cc(NC(=O)Nc3ccccc3)c(F)cc2Br)cc2cnc(NC)cc21` is recorded as 0% (item: investigations; healthy human, matched to severe hepatic impairment; oral, 50 mg single dose).
For `CC(C)C[C@H](NC(=O)CNC(=O)c1cc(Cl)ccc1Cl)B(O)O`, “treatment-emergent adverse events” read 6% (item: Hyperglycaemia; human newly diagnosed multiple myeloma; oral, dose not given, maintenance, grade 3, onset cycle 17 or later).
Under “systolic blood pressure”, `C[C@@H](O)CCOC(=O)C[C@@H](C)O` is recorded as 112 mmHg (human; oral drink, dose not given, 30 min post dose, mean).
For `C[C@@H](N)C1CCN(S(=O)(=O)c2cccc3cnccc23)CC1`, the TEAE incidence was 0% (item: Bradycardia; healthy volunteers; 250 mg, fasted).
`Cc1cn(-c2cc(NC(=O)c3ccc(C)c(Nc4nccc(-c5cccnc5)n4)c3)cc(C(F)(F)F)c2)cn1` — result for “peripheral volume of distribution (V2)”: 223 L (population PK model, typical value; human, both sexes, plasma; oral, dose not given).
`O=C(NCc1ccc(CNC2CCCCC2)cc1)c1csc2nc[nH]c(=O)c12` has an EC50 of > 100 µM (haemolysis; human red blood cells; 1 h, 37 °C).
`CCCCC[C@H](O)CC[C@@H]1[C@H]2Cc3cccc(OCC(=O)O)c3C[C@H]2C[C@H]1O` — result for “geometric mean AUC(0-last)”: 0.84 ng·h/mL (LC-MS/MS; female Japanese PAH patients, plasma; inhaled, 54 µg).
For `CNC(=O)c1ccc(-c2cnc3ncc(Cc4ccc5ncccc5c4)n3n2)cc1F`, “AST increased incidence” read 11% (gastric cancer patients; oral, 600 mg twice daily, all grades RP2D expansion).
`O=Cc1ccc(O)cc1` — result for CSF concentration: “not detected” (human CSF; concentration not given, mean).
`N#Cc1ccc2c(c1)[C@H]1CCCN(C(=O)c3ccc4[nH]cnc4c3)[C@H]1C2` gave an SHBG level of 35.1 nmol/L (human females; 40 mg, day 15).
`O=C(O)C[C@H](O)C[C@H](O)/C=C/c1c(C2CC2)nc2ccccc2c1-c1ccc(F)cc1` gave a half-life of 1.9 h (FVB wild-type mouse, plasma; oral, 5 mg/kg, together with: rifampin 20 mg/kg oral).
`CCCn1cc(C)c2c(=O)[nH]c(-c3cc(S(=O)(=O)N4CCN(CC)CC4)ccc3OCC)nc21` has a pharmacodynamic-related TEAEs of 27.8% (human; concentration not given).
With `CCCCc1oc2ccccc2c1C(=O)c1cc(I)c(OCCN(CC)CC)c(I)c1` the heart rate was 223 ± 0.2 beats/min (male Hartley guinea pigs, anaesthetized; intravenous, 5 mg/kg group, baseline before infusion).
With `Cc1cccc(C)c1OCC(=O)N[C@@H](Cc1ccccc1)[C@@H](O)C[C@H](Cc1ccccc1)NC(=O)[C@H](C(C)C)N1CCCNC1=O` the amorphous solubility was 17.2 µg/mL (50 mM phosphate buffer, 100 µg/mL HPMCAS; pH 6.5, 37 °C, average of three methods).
The anaemia incidence of `CNCc1ccc(-c2[nH]c3cc(F)cc4c3c2CCNC4=O)cc1` is reported as 0% (patients; oral, 600 mg twice daily, grade 5).
For `C=CC(=O)N1CCC(c2ccc(C(N)=O)c(-c3ccc(Oc4ccccc4)cc3)n2)CC1`, “treatment-related AE rate” read 31.3% (relapsed/refractory mantle cell lymphoma patients; oral, 100 mg twice daily, part, CTCAE v4.03).
`CC(C)(C)c1ccc(C(O)CCCN2CCC(C(O)(c3ccccc3)c3ccccc3)CC2)cc1` (centres unmarked) gave a heart rate of 189 ± 0.3 beats/min (male Hartley guinea pigs, anaesthetized; intravenous, 1 mg/kg over 10 min, after infusion).
With `C[C@@H]1CN(CC(=O)N2CC(C)(C)c3nc(CO)c(Cc4ccc(F)cc4)cc32)[C@@H](CN2CCOC[C@H]2C)CN1` the oral bioavailability was 28 ± 8.6% (male cynomolgus monkey; oral, 30 mg/kg).
`C=CC(=O)N(C)CCOc1c(N)ncnc1-c1cc(F)cc(NC(=O)c2ccc(C3CC3)cc2F)c1C` has a Cmax of 1.26 ng/mL (human; oral, 1.5 mg single dose).
`C[C@@H](Oc1ccc(S(C)(=O)=O)cc1C(=O)N1C[C@@H]2C[C@]2(c2cc(C(F)(F)F)on2)C1)C(F)(F)F` — result for “incidence of Insomnia”: 16.7% (human; oral, 25 mg).
`Cc1cc(C)c(CNC(=O)c2cc(Cl)c3c(c2C)O[C@@](C)([C@H]2CC[C@H](N(C)C)CC2)O3)c(=O)[nH]1`: “grade ≥3 adverse event Hypophosphatemia” 4.2% (relapsed/refractory NHL patients; oral, 200 mg once daily, onset after cycle 1 day 1).
Under “urinary potassium excretion change”, `Cc1ccc([C@@H]2O[C@H](CO)[C@@H](O)[C@H](O)[C@H]2O)cc1Cc1ccc(-c2ccc(F)cc2)s1` is recorded as -1.7 mEq (Japanese type 2 diabetes patients; 25 mg, day 3, 24 h urine collection; reference: baseline).
Under “subjects with adverse event”, `NS(=O)(=O)c1cc(C(=O)O)c(NCc2ccco2)cc1Cl` is recorded as 0% (item: toothache; healthy men; oral, 8 days, treatment-emergent, crossover trial).
`C[C@@H](c1nc(-c2ccc(C#N)cc2)cs1)[C@](O)(Cn1cncn1)c1cc(F)ccc1F` — result for “subjects with TEAEs”: 0% (item: abdominal discomfort; humans; oral, dose not given, together with: ketoconazole).
For `CN(C(=O)n1cnc(-c2cccnc2)c1)C1CCCCC1`, the tissue concentration was 38.8 ± 5.5 ng/g (Wistar rat, pons; oral, 10 mg/kg, 4 h, single dose).
The tissue concentration of `O=C1c2ccncc2C(=O)c2c1[nH]c1ccccc21` is reported as 0.013 ± 0.004 nmol/mg (Sprague-Dawley rat, male, lung; intravenous, 1 mg/kg, 24 h).
`O=C(O)C=Cc1ccc(OS(=O)(=O)O)c(O)c1` — result for CSF concentration: “not detected” (human CSF; concentration not given, mean).
For `O=C(Nc1cnccc1Cl)N1CCN(Cc2ccc3c(c2)OC(F)(F)O3)CC1`, “volunteers with adverse event” read 0% (item: Ecchymosis; healthy elderly humans; 100 mg once daily, 10 days).
The Tmax of `CCOc1c([C@H](C)n2nc(C)c3c(N)ncnc32)cc(Cl)c(F)c1[C@@H]1CNC(=O)C1` is reported as 1 h (patients with B-cell malignancies, plasma; oral, 30 mg, day 1, monotherapy).
For `COc1cc(Nc2ncc3c(n2)-c2ccc(Cl)cc2C(c2c(F)cccc2OC)=NC3)ccc1C(=O)O`, “patients with adverse event” read 13% (item: Hyperkalemia, grade 1; cancer patients, phase 1/2; oral, dose not given, together with: pembrolizumab).
For `CCN1CCN(Cc2ccc(Nc3ncc(F)c(-c4cc(F)c5nc6n(c5c4)[C@H](C)CCC6)n3)nc2)CC1`, the AUC(0-tau) was 8340 ng·h/mL (human, Phase Ib patients, plasma; 400 mg, multiple doses, mean, together with: fulvestrant).
For `NC1(C(=O)N[C@@H](CCO)c2ccc(Cl)cc2)CCN(c2nc[nH]c3nccc2-3)CC1`, “incidence of blood creatinine increased” read 0% (metastatic CRPC patients; 480 mg b.i.d., grade 3 to 4, treatment-related, together with: enzalutamide 160 mg daily).
For `N#Cc1ccc2c(c1)[C@H]1CCCN(C(=O)c3ccc4[nH]cnc4c3)[C@H]1C2`, “AUC(tau) steady state” read 72 µM·h (human, plasma; oral, 80 mg once daily, steady state).
For `C[C@H](CS)C(=O)N1CCC[C@H]1C(=O)O`, the heart rate was 214 ± 0.5 beats/min (male Hartley guinea pigs, anaesthetized; intravenous, 30 mg/kg group, baseline before infusion).
Under “heart rate change”, `CC[C@H](C)[C@H](NC(=O)[C@H](Cc1ccccc1)NC(=O)[C@H](CCC(=O)O)NC(=O)[C@H](CCCCNC(=O)COCCOCCNC(=O)COCCOCCNC(=O)CC[C@H](NC(=O)CCCCCCCCCCCCCCCCC(=O)O)C(=O)O)NC(=O)[C@H](C)NC(=O)[C@H](C)NC(=O)[C@H](CCC(N)=O)NC(=O)CNC(=O)[C@H](CCC(=O)O)NC(=O)[C@H](CC(C)C)NC(=O)[C@H](Cc1ccc(O)cc1)NC(=O)[C@H](CO)NC(=O)[C@H](CO)NC(=O)[C@@H](NC(=O)[C@H](CC(=O)O)NC(=O)[C@H](CO)NC(=O)[C@@H](NC(=O)[C@H](Cc1ccccc1)NC(=O)[C@@H](NC(=O)CNC(=O)[C@H](CCC(=O)O)NC(=O)C(C)(C)NC(=O)[C@@H](N)Cc1cnc[nH]1)[C@@H](C)O)[C@@H](C)O)C(C)C)C(=O)N[C@@H](C)C(=O)N[C@@H](Cc1c[nH]c2ccccc12)C(=O)N[C@@H](CC(C)C)C(=O)N[C@H](C(=O)N[C@@H](CCCNC(=N)N)C(=O)NCC(=O)N[C@@H](CCCNC(=N)N)C(=O)NCC(=O)O)C(C)C` is recorded as 1.2 beats/min (hypoglycaemic clamp; type 2 diabetes patients; dose not given, plasma glucose 5.5 to 3.5 mmol/L).
`CC(C)NCC(O)c1ccc(NS(C)(=O)=O)cc1` (racemic) has a heart rate of 172 ± 0.4 beats/min (male Hartley guinea pigs, anaesthetized; intravenous, 3 mg/kg over 10 min, after infusion).
For `Cl.[2H]C([2H])([2H])CC(=O)c1cnc(NC(=O)C2CC2)cc1Nc1cccc(-c2ncn(C([2H])([2H])[2H])n2)c1OC`, the Tmax was 0.88 h (median; human; oral, 10 mg single dose, fasted, liquid).
`Oc1ccc(/C=C/c2cc(O)cc(O)c2)cc1` has a potassium of 3.6 mEq/L and 3 mEq/L and 2.9 mEq/L (rat, azoxymethane-injected, blood at sacrifice; 100 mg/kg).
With `COc1ccc2c(c1)CN(C(=O)CCN1CCC(Cc3ccccc3)CC1)CC[S@@+]2[O-]` the heart rate was 110 ± 7 beats/min (telemetry; conscious dog; intravenous, 2 mg/kg, 0.5 h).
`CO[C@@H]1[C@H](OC(=O)N2CC(CCN3CCOCC3)C2)CC[C@]2(CO2)[C@H]1[C@@]1(C)O[C@@H]1CC=C(C)C` — result for “activated partial thromboplastin time”: -1.7 ± 0.8 s (humans; subcutaneous, 1.8 mg twice weekly for 4 weeks, day 28; reference: baseline).
The recovery of `CC(=O)N[C@H]1[C@H]([C@H](O)[C@H](O)CO)OC(C(=O)O)=C[C@@H]1N=C(N)N` is reported as 103% (HPLC; HBSS; 5 µg/mL, 36 h, room temperature, short-term stability).
For `O=C(O)CCc1ccccc1O`, CSF concentration read “not detected” (human CSF; concentration not given, mean).
`Cc1cc(NC2CCN(C(=O)OC3CCN(C(=O)/C=C/CN(C)C)C3)CC2)n2ncc(C(C)C)c2n1` (centres unmarked) — result for “patients with adverse events”: 91% (patients with advanced solid tumours; dose not given, TIW arm, any grade).
The AUC(0-tau) of `O=C(O)CCC(=O)O.[2H]C([2H])([2H])Oc1cc(C)c2[nH]ccc2c1CN1CC[C@@H](C2CC2)C[C@H]1c1ccc(C(=O)O)cc1` is reported as 14400 ng·h/mL (human, plasma; 125 mg twice daily, day 1, multiple ascending dose, geometric mean).
Under “peripheral volume of distribution”, `Cn1cnc2c(F)c(Nc3ccc(Br)cc3Cl)c(C(=O)NOCCO)cc21` is recorded as 57.6 L (human, plasma; oral, dose not given, nonlinear absorption).
For `CC(=O)N(C)[C@H]1CCN(C(=O)c2cnc3c(c2)C[C@](C)(c2ccc(F)cc2)N3)C1`, “adverse events of special interest” read 0% (healthy male subjects, multiple rising dose; oral, 15 mg once daily).
For `CCc1cc(C(=O)NC)c2nccc(N3CCc4c(cc(Cn5ccnc5)cc4-c4cn(C)nc4C(F)(F)F)C3=O)c2c1`, the body weight was 249 ± 4.3 g (Sprague Dawley rat; oral, 100 mg/kg once daily, day 5, 7-day toxicology study).
For `O=C1NCCc2nc(OCc3cccc(F)c3)ccc21`, “Irwin test score” read 0 (item: tail erection; Sprague-Dawley rat male; oral, 100 mg/kg, 0 min; reference: baseline, direction not given).
With `COc1ccc2c(=O)n(C)c(-c3ccccc3)nc2c1` the tissue/plasma ratio was 0.44 (Sprague-Dawley rat, male, skeletal muscle/plasma; oral, 30 mg/kg, 2 h; reference: skeletal muscle over plasma).
`CCN1/C(=C/C(C)=O)Sc2ccc(F)cc21` has a QT interval of 264 ± 6 ms (cynomolgus monkey; oral, 30 mg/kg, 24 h post-dose).
`CC(C)(C)c1ccc(O)c(CN(Cc2cc(C(C)(C)C)ccc2O)C2CCC(NC(N)=O)CC2)c1` (centres unmarked) — result for “terminal elimination rate constant”: 1.94e-05 s⁻¹ (C57BL/6 mice, male, brain; intraperitoneal, 25 mg/kg, single dose).
